# Measurements from different studies.
# Compare with care: the assays were run in different laboratories. Numbers after ± are the reported error.
# CXCR4: C-X-C chemokine receptor type 4 (CXCR4, Homo sapiens, UniProt P61073)
# Sequence of UniProt Q63449 (whole entry, looked up): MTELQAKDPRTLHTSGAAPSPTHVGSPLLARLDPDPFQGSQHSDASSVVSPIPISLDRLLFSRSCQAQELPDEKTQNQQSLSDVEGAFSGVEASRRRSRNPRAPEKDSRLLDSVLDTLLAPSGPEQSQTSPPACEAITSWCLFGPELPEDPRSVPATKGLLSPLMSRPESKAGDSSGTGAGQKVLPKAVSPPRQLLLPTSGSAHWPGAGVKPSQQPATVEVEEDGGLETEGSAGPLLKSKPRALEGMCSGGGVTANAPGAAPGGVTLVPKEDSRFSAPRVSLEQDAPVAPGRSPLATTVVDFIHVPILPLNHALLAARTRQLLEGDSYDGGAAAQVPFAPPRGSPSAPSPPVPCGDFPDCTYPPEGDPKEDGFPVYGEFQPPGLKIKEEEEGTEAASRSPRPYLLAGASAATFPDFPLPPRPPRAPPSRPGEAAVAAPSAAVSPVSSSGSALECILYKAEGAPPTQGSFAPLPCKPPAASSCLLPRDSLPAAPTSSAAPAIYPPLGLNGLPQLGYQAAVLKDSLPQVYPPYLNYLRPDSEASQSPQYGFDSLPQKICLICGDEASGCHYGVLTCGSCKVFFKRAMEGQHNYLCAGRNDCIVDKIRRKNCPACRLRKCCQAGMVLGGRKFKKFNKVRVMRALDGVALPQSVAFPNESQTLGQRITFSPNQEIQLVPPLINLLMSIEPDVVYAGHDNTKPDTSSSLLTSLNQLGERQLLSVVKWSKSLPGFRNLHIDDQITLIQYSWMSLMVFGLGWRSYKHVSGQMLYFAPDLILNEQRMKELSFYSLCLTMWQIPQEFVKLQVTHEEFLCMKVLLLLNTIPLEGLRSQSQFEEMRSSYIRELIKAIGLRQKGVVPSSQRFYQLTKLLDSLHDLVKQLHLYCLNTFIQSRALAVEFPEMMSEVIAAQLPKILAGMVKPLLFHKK
# Sequence of UniProt Q03431 (whole entry, looked up): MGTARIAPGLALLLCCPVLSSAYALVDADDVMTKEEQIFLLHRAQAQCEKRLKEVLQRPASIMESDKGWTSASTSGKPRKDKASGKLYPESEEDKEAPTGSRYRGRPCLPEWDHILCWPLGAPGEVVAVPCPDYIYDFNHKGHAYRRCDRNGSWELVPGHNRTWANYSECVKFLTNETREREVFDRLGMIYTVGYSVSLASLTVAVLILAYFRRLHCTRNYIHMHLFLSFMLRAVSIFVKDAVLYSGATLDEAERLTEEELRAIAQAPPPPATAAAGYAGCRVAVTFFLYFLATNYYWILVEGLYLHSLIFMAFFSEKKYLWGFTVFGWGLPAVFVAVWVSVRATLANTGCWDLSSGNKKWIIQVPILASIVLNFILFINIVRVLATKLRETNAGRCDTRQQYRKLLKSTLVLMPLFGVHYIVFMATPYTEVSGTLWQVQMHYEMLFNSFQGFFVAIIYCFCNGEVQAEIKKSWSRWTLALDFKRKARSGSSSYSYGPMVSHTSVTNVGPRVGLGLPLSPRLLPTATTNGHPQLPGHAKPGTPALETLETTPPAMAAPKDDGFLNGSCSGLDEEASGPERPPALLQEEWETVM
# Sequence of UniProt P45973 (whole entry, looked up): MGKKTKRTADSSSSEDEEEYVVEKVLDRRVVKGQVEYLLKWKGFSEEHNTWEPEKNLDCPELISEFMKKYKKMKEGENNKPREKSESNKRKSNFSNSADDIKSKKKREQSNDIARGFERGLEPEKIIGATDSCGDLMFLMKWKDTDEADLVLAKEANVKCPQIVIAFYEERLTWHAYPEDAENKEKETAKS
# Sequence of UniProt Q7L0J3 (whole entry, looked up): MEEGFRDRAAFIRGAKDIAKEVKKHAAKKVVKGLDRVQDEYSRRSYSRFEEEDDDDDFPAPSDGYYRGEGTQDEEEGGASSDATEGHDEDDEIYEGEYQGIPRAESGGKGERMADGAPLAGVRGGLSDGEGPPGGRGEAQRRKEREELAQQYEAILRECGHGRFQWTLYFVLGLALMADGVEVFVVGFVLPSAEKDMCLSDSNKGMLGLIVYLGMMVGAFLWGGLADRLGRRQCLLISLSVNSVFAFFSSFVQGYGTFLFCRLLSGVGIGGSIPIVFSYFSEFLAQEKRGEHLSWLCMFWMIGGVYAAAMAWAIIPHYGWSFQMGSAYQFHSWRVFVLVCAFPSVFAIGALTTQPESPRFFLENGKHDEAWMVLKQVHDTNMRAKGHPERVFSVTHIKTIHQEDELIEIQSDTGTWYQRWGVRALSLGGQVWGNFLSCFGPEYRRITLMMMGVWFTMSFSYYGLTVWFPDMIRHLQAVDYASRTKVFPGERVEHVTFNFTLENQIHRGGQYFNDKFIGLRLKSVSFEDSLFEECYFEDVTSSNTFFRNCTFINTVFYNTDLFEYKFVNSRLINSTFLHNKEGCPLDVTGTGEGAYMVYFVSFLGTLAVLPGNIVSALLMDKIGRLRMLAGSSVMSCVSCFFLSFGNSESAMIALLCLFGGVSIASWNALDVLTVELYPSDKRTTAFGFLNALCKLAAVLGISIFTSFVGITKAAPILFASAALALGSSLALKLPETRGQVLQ
# Sequence of UniProt P50391 (whole entry, looked up): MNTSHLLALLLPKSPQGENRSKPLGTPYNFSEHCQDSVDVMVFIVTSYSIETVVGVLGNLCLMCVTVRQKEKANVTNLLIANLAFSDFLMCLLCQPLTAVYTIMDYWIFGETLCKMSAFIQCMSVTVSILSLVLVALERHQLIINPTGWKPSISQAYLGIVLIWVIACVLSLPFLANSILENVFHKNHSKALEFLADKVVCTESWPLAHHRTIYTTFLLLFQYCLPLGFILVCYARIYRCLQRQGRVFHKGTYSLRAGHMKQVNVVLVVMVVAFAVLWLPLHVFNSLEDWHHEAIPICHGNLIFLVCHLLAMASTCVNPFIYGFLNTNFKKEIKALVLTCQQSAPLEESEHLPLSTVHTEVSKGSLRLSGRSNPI
# Sequence of UniProt Q16539 (whole entry, looked up): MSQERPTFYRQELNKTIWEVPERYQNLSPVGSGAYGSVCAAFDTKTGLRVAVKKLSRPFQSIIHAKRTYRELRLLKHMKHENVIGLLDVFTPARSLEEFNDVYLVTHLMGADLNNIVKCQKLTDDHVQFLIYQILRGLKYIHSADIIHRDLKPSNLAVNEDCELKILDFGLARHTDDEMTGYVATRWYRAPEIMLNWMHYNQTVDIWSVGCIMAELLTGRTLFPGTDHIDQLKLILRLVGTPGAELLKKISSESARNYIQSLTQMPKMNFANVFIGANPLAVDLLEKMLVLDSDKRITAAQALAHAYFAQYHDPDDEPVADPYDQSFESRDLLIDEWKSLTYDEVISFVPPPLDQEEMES
SMILES,target,assay,system,setting,scale,endpoint,result
CN1C(=O)[C@@H](Cc2ccc(O)c(I)c2)NC(=O)CNC(=O)[C@H](Cc2ccc3ccccc3c2)NC(=O)[C@H](CCCNC(=N)N)NC(=O)[C@H]1CCCNC(=O)c1ccc(CNC(=O)CN2CCN(CC(=O)O)CCN(CC(=O)O)CCN(CC(=O)O)CC2)cc1 [lutetium-177 labelled],CXCR4,measured: bound plus internalized tracer,Daudi,"1 nM, 60 min, 37 °C",relative to: added dose,cellular uptake,6.5 ± 1.1%
CCCCc1ccc(C2=Nn3c(nnc3-c3ccccc3OC)SC2)cc1,CXCR4,"β-arrestin recruitment, agonist",U2OS,,,Emax,12%
CSCC[C@H](NC(=O)[C@H](CC(C)C)NC(=O)[C@H](CCC(N)=O)NC(=O)[C@H](Cc1c[nH]cn1)NC(=O)[C@H](CCC(=O)O)NC(=O)[C@H](CO)NC(=O)[C@@H](NC(=O)[C@@H](N)CO)C(C)C)C(=O)N[C@@H](Cc1c[nH]cn1)C(=O)N[C@@H](CC(N)=O)C(=O)N[C@@H](CC(C)C)C(=O)NCC(=O)N[C@@H](CCCCN)C(=O)N[C@@H](Cc1c[nH]cn1)C(=O)N[C@@H](CC(C)C)C(=O)N[C@@H](CC(N)=O)C(=O)N[C@@H](CO)C(=O)N[C@@H](CCSC)C(=O)N[C@@H](CCC(=O)O)C(=O)N[C@@H](CCCNC(=N)N)C(=O)N[C@H](C(=O)N[C@@H](CCC(=O)O)C(=O)N[C@@H](Cc1c[nH]c2ccccc12)C(=O)N[C@@H](CC(C)C)C(=O)N[C@@H](CCCNC(=N)N)C(=O)N[C@@H](CCCCN)C(=O)N[C@@H](CCCCN)C(=O)N[C@@H](CC(C)C)C(=O)N[C@@H](CCC(N)=O)C(=O)N[C@@H](CC(=O)O)C(=O)N[C@H](C(=O)N[C@@H](Cc1c[nH]cn1)C(=O)N[C@@H](CC(N)=O)C(=O)N[C@@H](Cc1ccccc1)C(=O)N[C@@H](CCCCNC(=O)c1ccc2c(c1)C1(OC2=O)c2ccc(N(C)C)cc2Oc2cc(N(C)C)ccc21)C(N)=O)C(C)C)C(C)C,"PTH1R (Homo sapiens, UniProt Q03431)","binding, NanoBRET",,"pH 5.5, acetate buffer",,kon,440000 ± 200000 M⁻¹ s⁻¹
CCN(CCCC[C@H](NC(=O)[C@H](Cc1ccc(OC)c(OC)c1)NC(=O)[C@H](C)NC(=O)[C@H](CC1CCCCC1)NC(=O)c1ccc(Br)c(N)c1)C(=O)N[C@@H](CO)C(=O)OC)C(C)C,"Chromobox protein homolog 5 (Homo sapiens, UniProt P45973)","binding, measured: CBX5",HEK-293T cell lysate,concentration not given,,competition of probe pulldown,inhibited
[3H]C([3H])([3H])c1cnccc1CN1C[C@@H](c2cc(F)c(F)c(F)c2)CC1=O,"SV2A (Homo sapiens, UniProt Q7L0J3)",radioligand binding,"human Alzheimer disease, temporal cortex P2 fraction",5 nM,relative to: control brains,loss of specific binding,~50.7%
NC(=O)C1CCNC(=O)C(CCCNC(=O)c2cnccn2)NC(=O)C(Cc2ccco2)NC(=O)C(CC2CC2)NC(=O)C=CC(=O)N1 (centres unmarked),"MAPK14 (Homo sapiens, UniProt Q16539)",DNA-templated library selection,,one selection round,,enrichment factor,1.1
CC(C)C[C@H](NC(=O)[C@H](CCCNC(=N)N)NC(=O)[C@H](Cc1ccc(O)cc1)NC(=O)CCCCCCC(=O)N[C@@H](Cc1ccc(O)cc1)C(=O)N[C@@H](CCCNC(=N)N)C(=O)N[C@@H](CC(C)C)C(=O)NN(CCCNC(=N)N)C(=O)N[C@@H](Cc1ccc(O)cc1)C(N)=O)C(=O)NN(CCCNC(=N)N)C(=O)N[C@@H](Cc1ccc(O)cc1)C(N)=O,"NPY4R (Homo sapiens, UniProt P50391)","calcium mobilization, agonist, aequorin",CHO-hY4-Gqi5-mtAEQ,"concentration not given, unit not given",relative to: 1 µM human pancreatic polypeptide,intrinsic activity,0.07
C[C@]12C[C@H](c3ccc(S(C)(=O)=O)cc3)C3=C4CCC(=O)C=C4CC[C@H]3[C@@H]1CC[C@@]2(O)C(F)(F)C(F)(F)F,"Progesterone receptor (Rattus norvegicus, UniProt Q63449)",pregnancy termination,"rat, early pregnancy",oral,,fully effective dose,0.5 mg/kg
CC[C@H](C)[C@H](NC(=O)[C@H](C)NC(=O)CNC(=O)[C@H](CCCCN)NC(=O)[C@H](CC(C)C)NC(=O)[C@H](CCCCN)NC(=O)[C@H](CCCNC(=N)N)NC(=O)[C@H](CCCNC(=N)N)NC(=O)[C@H](C)NC(=O)[C@H](CC(N)=O)NC(=O)[C@H](Cc1ccccc1)NC(=O)[C@H](CCCCN)NC(=O)[C@H](CCCCN)NC(=O)[C@H](CC(C)C)NC(=O)c1ccc2c(c1)C(=O)OC21c2ccc(O)cc2Oc2cc(O)ccc21)C(=O)N[C@@H](CC(C)C)C(=O)N[C@H](C(=O)N[C@H](C(=O)N[C@@H](CCSC)C(=O)N[C@@H](CC(C)C)C(=O)N[C@@H](C)C(=O)O)[C@@H](C)O)[C@@H](C)O,"Calmodulin-1, C-lobe (Calm1, Rattus norvegicus, UniProt P0DP29)","binding, fluorescence anisotropy","CaM residues 76-148 (C-domain), apo",100 µM,relative to: calcium-saturated,anisotropy change,28%
CC(=O)NCCN(CC(=O)NCCN(CC(=O)NCCN(CC(=O)NCCC(N)=O)C(=O)[C@@H](N)CCCNC(=N)N)C(=O)[C@@H](N)Cc1ccccc1)C(=O)[C@@H](N)Cc1ccccc1,HIV-1 TAR RNA,,,concentration not given,,heat capacity change ΔCp,-2.09 ± 0.22 kJ/mol/K
Nc1ncnc2c1ncn2[C@@H]1O[C@H](CO)[C@@H](O[C@H]2O[C@H](CO)[C@@H](OP(=O)(O)O)[C@H](OP(=O)(O)O)[C@H]2O)[C@H]1O,"Itpr1 (Rattus norvegicus, UniProt P29994, del318-332/R504Q)","Ca2+ release, agonist",permeabilized DT40 cells,,,Hill coefficient,1.9 ± 0.4

# Excerpt of the above:
SMILES,target,assay,system,setting,scale,endpoint,result
NC(=O)C1CCNC(=O)C(CCCNC(=O)c2cnccn2)NC(=O)C(Cc2ccco2)NC(=O)C(CC2CC2)NC(=O)C=CC(=O)N1 (centres unmarked),"MAPK14 (Homo sapiens, UniProt Q16539)",DNA-templated library selection,,one selection round,,enrichment factor,1.1
